Published values of several laboratories.
Each line is one published result; not all experiments were run side by side. Several values in a cell are separate wells, animals, samples, runs or records. Numbers after ± are the reported error.

CN[C@@H]1COc2c(S(=O)(=O)NC(=O)Nc3c4c(cc5c3CCC5)CCC4)cnn2C1  inhibition (measured: IL-1β; human participants, whole blood ex vivo; 300 mg twice daily, multiple doses, 4 h, together with: LPS/ATP; relative to: baseline): 99.5%
N#Cc1ccn2c(-c3ccncc3)c(-c3ccc(F)cc3)nc2c1  log2 fold change (kinase binding, competitor, MIB/MS competition, measured: KSP1; Candida albicans cell lysate; 1 µM; relative to: DMSO): -0.765
CCCCc1nc2c(N)nc3ccccc3c2n1Cc1ccc(N)cc1  concentration (TNF-α release, ELISA; PBMC, human; 24 h): ~10 µM
COc1cc(Nc2ncc3c(n2)-c2ccc(Cl)cc2C(c2c(F)cccc2OC)=NC3)ccc1C(=O)O  median response score (mouse, OS-1 osteosarcoma xenograft; 2.6 mg/kg; direction not given): 2
CO[C@@H](C(=O)N1Cc2n[nH]c(NC(=O)c3ccc(N4CCN(C)CC4)cc3)c2C1)c1ccccc1  discontinuation due to disease progression (patients with advanced solid tumours; dose not given, together with: G-CSF): 88%
O=C(O)CNC(=O)Cc1ccccc1  sarcomere length (ventricular cardiomyocytes, C57BL/6 mouse; dose not given, 0.328 s): 1.72 µm
CCN1CCN(Cc2ccc(Nc3ncc(F)c(-c4cc(F)c5nc6n(c5c4)[C@H](C)CCC6)n3)nc2)CC1  Non-CR/non-PD (RECIST v1.1; advanced solid tumour patients; Phase Ia monotherapy): 0%
N#Cc1ccc2c(c1)[C@H]1CCCN(C(=O)c3ccc4[nH]cnc4c3)[C@H]1C2  change from baseline (measured: HDL; human; 240 mg once daily, day 28, adjusted mean, together with: metformin; relative to: placebo): -0.08 mg/dL
CN(C)C(=O)Nc1cccc(-c2ccc(N(C)C)cc2)c1  cumulative food intake (mouse HFD-fed; dose not given, 72 h; relative to: vehicle): 106% and 82.5% and 94.3% and 117%
Nc1cccc2c1C(=O)N(C1CCC(=O)NC1=O)C2=O (stereo not drawn)  exchange rate constant (deuterium-hydrogen exchange; aqueous phosphate buffer; pH 7.4, 37 °C): -0.0164 h⁻¹
C[C@H]1O[C@@H](O[C@H]2CC[C@@]3(C)[C@@H](CC[C@]4(C)[C@@H]3C=C[C@]35OC[C@@]6(CCC(C)(C)C[C@H]63)[C@@H](O)C[C@]54C)[C@]2(C)CO)[C@H](O)[C@@H](O[C@@H]2O[C@H](CO)[C@@H](O)[C@H](O)[C@H]2O)[C@H]1O  protein level (Western blot, measured: Deptor; chronic-plus-binge ethanol-fed mice, liver; dose not given, dose level -H, unit not given; relative to: β-actin): 1.77 and 1.07 and 1.19
CCc1c(C)nc(-c2ccc(Cl)s2)nc1Nc1ccc(CC(=O)O)cc1  PPAR-gamma expression (C57BL/6J mouse, MCD diet MASH model, liver; intraperitoneal, 0.3 mg/kg daily, MCD diet 6 weeks, dosed final two weeks; relative to: untreated): no effect
CC1(C)CCC(c2ccc(Cl)cc2)=C(CN2CCN(c3ccc(C(=O)NS(=O)(=O)c4ccc(N[C@H](CCN5CCOCC5)CSc5ccccc5)c(S(=O)(=O)C(F)(F)F)c4)cc3)CC2)C1  EC50 (cell kill; primary neoplastic T lymphocytes, dog 20; 24 h, multicentric intermediate-large T-cell lymphoma): 17 nM
CC(c1cc2ccccc2s1)N(O)C(N)=O (stereo not drawn)  amount (measured: TXB2; human whole blood; 3 µM, together with: Escherichia coli): 24700 ± 13100 pg/mL blood
CC[C@H](CC[C@@H](C)[C@H]1CC[C@H]2[C@@H]3CC=C4C[C@@H](O[C@@H]5O[C@H](CO)[C@@H](O)[C@H](O)[C@H]5O)CC[C@]4(C)[C@H]3CC[C@]12C)C(C)C  lipid content (Oil Red O; 3T3-L1, mouse; 5 µM, day 8): decreased
O[C@H]1CCCN[C@@H]1CCCn1cnc2c(Cl)c(Cl)ccc21  maximum reduction (ELISA, measured: Pro-C6; healthy human volunteers, serum; 50 mg, day 1, multiple ascending dose): 11.3%
O=C(O)CNC(=O)C(CS)Cc1ccccc1 (stereo not drawn)  Leu-enkephalin concentration (LC-MS/MS, measured: extracellular Leu-enkephalin; mouse striatal brain slices; 10 µM, 20 min, together with: 50 mM KCl): 4420 pM and 1340 pM and 1610 pM and 7710 pM and 596 pM and 1110 pM and 1460 pM
CCCCCN1C[C@H](O)[C@@H](O)[C@H](O)[C@@H]1CO  decreased sphingolipid species (Hexb-/- mouse, liver; 300 mg/kg/day, unit not given; relative to: 30 mg/kg/day): 30
